Published values gathered from unrelated publications.
A part holds a random share of what one study measured. Substitutions count along the parent as printed.

Sample 1
Target: Histone acetyltransferase KAT6A, winged helix 1, GST fusion (KAT6A, Homo sapiens, UniProt Q92794, residues 1-85)
Method: protein binding microarray
Molecule type: double-stranded DNA, one strand shown
Matrix: in vitro
Concentration: not given
Notes: 8-mer, flanks averaged, mean of 2 arrays, mostly near background
Relative to: not given
Direction: higher = stronger binding
Target sequence (chain): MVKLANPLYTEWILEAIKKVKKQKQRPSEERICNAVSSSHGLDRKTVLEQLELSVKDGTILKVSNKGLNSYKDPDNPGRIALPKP
Oligonucleotide | E-score
GTCCTCGA | -0.0714
CCCAAGGC | 0.0316
ACGGGCAA | 0.254
GATCAATC | -0.000465
ACAACTAA | -0.0659
ATCCACCG | 0.0943
GGCGCATA | 0.313
ATGCTTGG | -0.133

Sample 2
Target: Phosphate system positive regulatory protein PHO4, full length, GST-tagged (PHO4, Saccharomyces cerevisiae, UniProt P07270, residues 1-312)
Method: competition protein-binding microarray
Molecule type: double-stranded DNA, one strand shown
Matrix: in vitro
Concentration: 2 µM
Notes: whole 60-bp probe, lowest competitor level
Added: Cbf1 competitor, 0.05 µM
Direction: higher = stronger binding
Constant ends, left off below: … GTCTTGATTCGCTTGACGCTGCTG
Construct (chain): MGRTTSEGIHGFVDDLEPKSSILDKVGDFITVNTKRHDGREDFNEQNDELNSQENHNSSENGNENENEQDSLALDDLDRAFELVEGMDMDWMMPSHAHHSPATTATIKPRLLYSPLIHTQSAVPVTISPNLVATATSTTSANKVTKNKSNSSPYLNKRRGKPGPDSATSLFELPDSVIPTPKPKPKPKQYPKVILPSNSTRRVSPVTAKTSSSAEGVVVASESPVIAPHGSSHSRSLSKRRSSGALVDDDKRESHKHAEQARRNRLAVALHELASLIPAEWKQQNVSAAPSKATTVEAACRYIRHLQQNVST
Oligonucleotide | fluorescence intensity [a.u.]
TGCGCAACAACTTGTCACACGACTTTATGTCTAGAA | 5800
TAACCCCCTCCTACCCACGCTATTCTTCAAATTCCG | 6470
GGAAGGTGGCACCATCACCTGGGGAAATTCTGTCAA | 3670
GCCCGCTCCCGCCGGCTCGTGCCAGCAAATCAGACA | 8710
GCGTTGCAGATCGCTCAGCTGACTTTGAAGCATCGC | 2600
CTTCTGTAAATTTGTCACACTACTTGACGCGCCCCG | 4700
GCAGCACCCAAGCTTCCCGTGTATCCATACCACCCT | 5720
AAATTACTAAGTTACCACGTGTTTTACCCCGTATGA | 20000

Sample 3
Target: Ras GTPase-activating protein-binding protein 1, full length (G3BP1, Homo sapiens, UniProt Q13283)
Chain of UniProt Q13283 (whole entry, looked up): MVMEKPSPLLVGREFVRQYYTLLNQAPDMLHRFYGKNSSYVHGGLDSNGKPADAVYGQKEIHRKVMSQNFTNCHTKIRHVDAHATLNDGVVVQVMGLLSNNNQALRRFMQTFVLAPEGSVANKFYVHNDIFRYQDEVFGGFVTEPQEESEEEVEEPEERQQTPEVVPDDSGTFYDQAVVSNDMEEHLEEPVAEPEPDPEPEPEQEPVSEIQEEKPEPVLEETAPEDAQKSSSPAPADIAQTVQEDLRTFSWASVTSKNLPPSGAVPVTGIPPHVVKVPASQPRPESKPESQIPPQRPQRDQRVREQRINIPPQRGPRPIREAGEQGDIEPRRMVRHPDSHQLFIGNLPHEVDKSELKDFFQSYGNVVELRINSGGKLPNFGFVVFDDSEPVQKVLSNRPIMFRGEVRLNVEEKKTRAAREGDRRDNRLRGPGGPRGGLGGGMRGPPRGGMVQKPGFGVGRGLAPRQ
Method: RNA Bind-n-Seq
Molecule type: RNA
Matrix: in vitro
Concentration: 200 nM
Notes: whole 134-nt RNA, ends assumed
Added: 150 mM LiCl
Relative to: input library
Direction: higher = stronger binding
Each molecule: 7-deaza-guanosine replaces G
Constant ends, left off below: GGGAGUUCUACAGUCCGACGAUC … UGGAAUUCUCGGGUGUCAAGG
Oligonucleotide | log2 enrichment
CCUCAAGUCCUGUGCUACACAUCGUAUGUACCGAAUCGGCCGGGCCGGGCCGGAAAGUAUUAUGUUACGCCGUUCGGAUCUGCACUUCCA | 0.153
UCGGCUACACUGCCCGGAGAAUUCUCAAUGAGGAUGGCAGCCCUAACCUGGACUUCAAGCCUGAAGACCAGCCCCAUUUUGACAUCAAGG | -0.751
CACAGACAACACGCACCCACACAGACACAGAAAAAAGGGGUUGGGAUGGGGACAGGGUGCACAGCAGGGCGGGGUAGGACCCCAGCCCCU | 0.177
UGGGAGGUGGAUUUUGUUUAUUUUUUUAGCUCAUUUCCAGGGGUGGGAAUUUUUUUUUAAUAUGUGUGAUGAAUAAAGUUGUUUUUGAAA | 0.0364
CAAGUCCUGUGCUACACAUCGUAUGUACCGAAUCGGGAAAGGGGAAAGGGGAAAGGAAAGUAUUAUGUUACGCCGUUCGGAUCUGCACUU | -0.67
CACAGACAACACGCACCCACACAGACACAGAGAGAAGGGGUUGGGAUGGGGACAGGGUGCACAGCAGGGCGGGGUAGGACCCCAGCCCCU | 0.78
UGGACUGCCUAUGGAAGAAGAAGUUCAAGAAGGAGCACGAGGAGUUUGAGACCAUGGAGAACGUGAACCGCCUUCUUCUGGAGAACGUCC | -0.63
CCUGUGCUACACAUCGUAUGUACCGAAUCGGGAAAAAAAGGGAAAAAAAGGAAAAAAAGGAAAGUAUUAUGUUACGCCGUUCGGAUCUGC | -0.00014

Other studies, line by line
Starting sequence: viral docking peptide; KKAKRRLFTISDS; partner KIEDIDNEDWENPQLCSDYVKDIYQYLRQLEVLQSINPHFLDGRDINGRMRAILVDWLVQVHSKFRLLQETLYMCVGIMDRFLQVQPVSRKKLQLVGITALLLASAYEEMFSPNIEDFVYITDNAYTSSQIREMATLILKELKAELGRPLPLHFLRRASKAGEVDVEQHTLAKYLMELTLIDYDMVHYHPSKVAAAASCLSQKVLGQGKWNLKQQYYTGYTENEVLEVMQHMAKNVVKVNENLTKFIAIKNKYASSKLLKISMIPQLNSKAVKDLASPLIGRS
Substitution | target | assay | test system | conditions | how to read | measurement | value
T9A | CCNB2, cyclin fold, Cln2 fusion (human) | yeast growth competition, sequencing | yeast | strong parent motif | relative to: not given, higher = stronger binding | normalised enrichment score | 0.473

Excerpt of the above (sample 2):
Oligonucleotide | fluorescence intensity [a.u.]
TAACCCCCTCCTACCCACGCTATTCTTCAAATTCCG | 6470
GGAAGGTGGCACCATCACCTGGGGAAATTCTGTCAA | 3670
GCCCGCTCCCGCCGGCTCGTGCCAGCAAATCAGACA | 8710
